Experimental data of several laboratories.
Parts stem from different laboratories: compare values within a part only.

Block 1 — organism: Arabidopsis thaliana; strain: Col-0; notes: seed germination; measurement: root length
Compound: C=CCN1C(=O)C(O)(C(=O)O)Oc2cc(F)ccc21 (stereo not shown)
50 µg/mL: 0.934 cm
12.5 µg/mL: 1.12 cm
100 µg/mL: 0.623 cm

Block 2 — time: 5 h; measurement: plasma protein binding
Compound: Cn1cc(-c2cccc(CN3CCC4(CC3)COc3c4ccc4c3CN([C@H]3CCC(=O)NC3=O)C4=O)c2)cn1
rat plasma: 91.2%
mouse plasma: 93.4%
monkey plasma: 94.3%
human plasma: 91.5%

Other studies, line by line
Cc1cc(-c2cnc(N)c3c(-c4ccc5scnc5c4)csc23)n(C)n1 — viability (L929; necroptosis protection, CCK-8; 15 µM, together with: TNF-α-induced): 66.8%
N=C(N)NCCCCCCN1CCC23c4c5ccc(O)c4OC2c2nc4ccccc4cc2CC3(O)C1C5 (stereo not shown) — seizure score (modified Racine scale; C57BL/6J mice, male; intracerebroventricular, 100 nmol, 55 min; direction not given): 0
Cc1c(NC(=O)c2cccn(-c3ccc(F)cc3)c2=O)ccc(Oc2ccnc(NC(=O)C3CC3)c2)c1C — viability (L929; necroptosis protection, CCK-8; 2.5 µM, together with: TNF-α-induced): 76.6%

Excerpt of the above (block 1):
100 µg/mL: 0.623 cm
